Measured values gathered from unrelated publications.
Compare with care: the assays were run in different laboratories. Several values in a cell are separate wells, animals, samples, runs or records. ± marks the error that the study gave.
TRPM8: Transient receptor potential cation channel subfamily M member 8 (TRPM8, Homo sapiens, UniProt Q7Z2W7)
FFAR4: Free fatty acid receptor 4 (FFAR4, Homo sapiens, UniProt Q5NUL3)
GAP50: Glideosome-associated protein 50 (GAP50, Plasmodium falciparum, UniProt Q8I2X3)
CAMK1D: Calcium/calmodulin-dependent protein kinase type 1D (CAMK1D, Homo sapiens, UniProt Q8IU85)
NADH dehydrogenase [ubiquinone] iron-sulfur protein 7, mitochondrial/NADH dehydrogenase [ubiquinone] iron-sulfur protein 2, mitochondrial/MT-ND1: NADH dehydrogenase [ubiquinone] iron-sulfur protein 7, mitochondrial/NADH dehydrogenase [ubiquinone] iron-sulfur protein 2, mitochondrial/MT-ND1 (Homo sapiens, UniProt O75251+O75306+P03886)

C[C@]12CCC(=O)C=C1CC[C@@H]1[C@@H]2[C@@H](O)C[C@]2(CO)[C@@H](C(=O)CO)CC[C@@H]12  maximal response (Mineralocorticoid receptor (NR3C2, Homo sapiens, UniProt P08235); reporter gene, agonist; reference: baseline): 27 fold
Cc1ccc(C(=O)Nc2ccc3ccccc3c2)o1  activation time constant (Otop1 (Mus musculus, UniProt Q80VM9); acid-evoked current, whole-cell patch-clamp; HEK293T; concentration not given, pH 5.5, preincubated before acid): 462 ms and 569 ms and 378 ms and 582 ms and 309 ms
Nc1nc2c(ncn2[C@@H]2O[C@H](COP(=O)(O)O)[C@@H](O)[C@H]2O)c(=O)[nH]1  reaction rate (GUK1 (Homo sapiens, UniProt Q16774, R44A); enzyme activity, NADH-coupled; 500 µM): -0.394 s⁻¹ and -1.89 s⁻¹
O=C1Cc2c([nH]c3ccc([N+](=O)[O-])cc23)-c2ccccc2N1  remaining activity (TRPM8; antagonist; HEK293; 5 µM; reference: control): 110 ± 15.2%
CC(C)(C)CCNc1cc(=O)[nH]c(=O)[nH]1  agonist effect (FFAR4; β-arrestin recruitment; CHO; 10 µM; reference: 30 µM TUG-891): 1%
NC(=O)c1ccc[n+]([C@@H]2O[C@H](COP(=O)([O-])OP(=O)(O)OC[C@H]3O[C@@H](n4cnc5c(NCCNC(=O)CCCCCNC(=O)CCCCCNC(=O)CCCC[C@@H]6SC[C@@H]7NC(=O)N[C@@H]76)ncnc54)[C@H](O)[C@@H]3O)[C@@H](O)[C@H]2O)c1  apparent Km (Protein mono-ADP-ribosyltransferase PARP16 (PARP16, Homo sapiens, UniProt Q8N5Y8); substrate, DELFIA auto-modification): 36 µM
Cc1cc2c(c(=O)[nH]1)C(=O)O/C2=C\c1cc(Br)ccc1OC(C)C  binding free energy (Dual specificity calcium/calmodulin-dependent 3',5'-cyclic nucleotide phosphodiesterase 1C, isoform PDE1C2 (PDE1C, Homo sapiens, UniProt Q14123); enzyme activity, inhibitor; together with: 3H-cGMP substrate): -9.43 kcal/mol
CCOc1cc(-c2nncn2C)ccc1Nc1ncc2cc(C)nc(NCC(C)(C)C)c2n1  displacement (Serine/threonine-protein kinase 17A (STK17A, Homo sapiens, UniProt Q9UEE5); binding, LanthaScreen binding; 1 µM): 23%
C[N+](C)(C)CC(=O)O  Ka (uncharacterized protein (Pelagibacter ubique, UniProt Q4FKZ8); binding, competition isothermal titration calorimetry; Candidatus Pelagibacter ubique; together with: glycine 2.5 mM competitor): 5.54e+08 M⁻¹ and 4.71e+08 M⁻¹
Nc1ncnc2c1ncn2[C@@H]1O[C@H](COP(=O)(O)CP(=O)(O)OP(=O)(O)O)[C@@H](O)[C@H]1O  calcium influx (P2X purinoceptor 1 (P2RX1, Homo sapiens, UniProt P51575, M214A); calcium influx; 1 µM; reference: ionomycin response): 71.6% and 55.8% and 79.4% and 68.6%
CNc1nnc(Sc2cnn(-c3ccccc3)c(=O)c2Cl)s1  kon (GAP50; binding, surface plasmon resonance; 1:1 binding model): 1960 M⁻¹ s⁻¹
CC(C)OCCn1c(=S)[nH]c(=O)c2[nH]ccc21  LDL lipid peroxidation (Myeloperoxidase (MPO, Homo sapiens, UniProt P05164); inhibitor, cholesteryl ester hydroperoxide; 0.0137 µM; reference: control): 134% and 103% and 97.3% and 91.2%
O=c1cc(NCCc2ccc(Cl)cc2Cl)[nH]c(=O)[nH]1  inhibition (FFAR4; antagonist, β-arrestin recruitment; CHO cells; 10 µM, together with: 4 µM TUG-891): 6 ± 6%
CC[C@H](C)[C@H](NC(=O)[C@H](CO)NC(=O)[C@@H](N)CC(=O)O)C(=O)N[C@@H](CCCNC(=N)N)C(=O)NCC(=O)N[C@@H](Cc1ccccc1)C(=O)N[C@@H](CC(C)C)C(=O)N[C@H](C(=O)N[C@@H](CCCNC(=N)N)C(=O)N1CCC[C@H]1C(=O)N[C@H](C(=O)N[C@@H](CCCNC(=N)N)C(=O)N[C@H](C(=O)N[C@H](C(=O)N[C@@H](Cc1c[nH]cn1)C(=O)N[C@@H](Cc1ccc(O)cc1)C(=O)N[C@@H](Cc1ccc(O)cc1)C(=O)N[C@@H](Cc1c[nH]c2ccccc12)C(=O)N[C@@H](CCCNC(=N)N)C(=O)N[C@@H](CCC(N)=O)C(=O)N[C@@H](Cc1ccccc1)C(=O)N[C@@H](CC(=O)O)C(=O)N[C@@H](CC(=O)O)C(=O)N[C@@H](CO)C(=O)N[C@@H](Cc1ccccc1)C(=O)N[C@@H](CCSC)C(=O)N[C@@H](CCCNC(=N)N)C(=O)N1CCC[C@H]1C(=O)N[C@H](C(=O)N[C@@H](Cc1ccccc1)C(=O)NCC(=O)NCC(=O)N[C@@H](CCCNC(=N)N)C(=O)O)C(C)C)C(C)C)[C@@H](C)O)[C@@H](C)O)[C@@H](C)O  binding enthalpy (ΔH1) (Probable calcium-binding protein CML18 (CML18, Arabidopsis thaliana, UniProt Q9M8U1); isothermal titration calorimetry; concentration not given, pH 6.3, 25 °C, together with: 180 µM Ca2+): -6.26 ± 0.355 kcal/mol
C[C@@H](c1cc(Cl)cc(Cl)c1)N(C)c1ncc2c(N)nc(N)nc2n1  kon (GAP50; binding, surface plasmon resonance; 1:1 binding model): 6770 M⁻¹ s⁻¹
CN1C(C(=O)Nc2ccccn2)=C(O)c2sc(Cl)cc2S1(=O)=O  activation (Nuclear receptor subfamily 4 group A member 2, LBD (Homo sapiens, UniProt P43354); reporter gene, Gal4 hybrid reporter; 30 µM; reference: vehicle): 0.86 fold
C=CC(=O)N1CCC(COCC(=O)N2CCN(c3nc(-c4cnc(N)nc4C(F)F)nc(N4CCOC[C@@H]4C)n3)CC2)CC1  remaining binding (Receptor-type tyrosine-protein kinase FLT3 (FLT3, Homo sapiens, UniProt P36888, N841I); KINOMEscan; 1 µM): 95%
NCCCC(=O)O  normalised MST signal (Sodium- and chloride-dependent taurine transporter (SLC6A6, Homo sapiens, UniProt P31641, G62A); binding, microscale thermophoresis; 31.3 µM, room temperature, together with: 50 nM labelled protein; higher = more binding): 0.0108
CC1=NN(c2cccc([N+](=O)[O-])c2)C(=O)C1=NNc1ccc(S(N)(=O)=O)cc1  inhibition (Alpha-amylase (Bos taurus, UniProt Q3MHH8); enzyme activity, inhibitor, glucose oxidase; 10 µg/mL, together with: dextrin): 5.7582 ± 0.000477%
CCOc1ccc2c(C(F)(F)F)cc(=O)oc2c1  catalytic efficiency ratio (Cytochrome P450 2B4 (Oryctolagus cuniculus, UniProt P00178, F206A/H226Y); O-deethylation, substrate; reference: wild type over F206A): 11 fold
Nc1ccc2ncnc(NCCc3ccc(Oc4ccccc4)cc3)c2c1  remaining activity (TRPM8; antagonist; HEK293; 5 µM; reference: control): 74.5 ± 11.3%
CCCCCCNc1cc(=O)[nH]c(=O)n1C  inhibition (FFAR4; antagonist, β-arrestin recruitment; CHO cells; 10 µM, together with: 4 µM TUG-891): 19 ± 7%
COc1cc(F)ccc1-c1ncnc(Nc2cccc(C[S@](C)(=N)=O)c2)n1  remaining activity (CAMK1D; kinase activity; 10 µM, together with: 10 µM ATP): 103%
O=C(CNc1cccc2c1C(=O)N(C1CCC(=O)NC1=O)C2=O)NCCCCCCN1CCc2c(c3ccccc3n2Cc2ccc(C(=O)NO)cc2)C1 (stereo not shown)  degradation (Polyamine deacetylase HDAC10 (HDAC10, Homo sapiens, UniProt Q969S8); degrader, western blot; MM1.S; 5 µM, 24 h): 88%
NCc1ccccc1  kcat (Amine oxidase [flavin-containing] A (Maoa, Rattus norvegicus, UniProt P21396); substrate; pH 9.0): 0.55 ± 0.00267 s⁻¹
CC1=C(/C=C\C2=CCC[C@]3(C)[C@@H]([C@H](C)CCCC(C)C)CC[C@@H]23)C[C@@H](O)CC1  initial metabolism rate (Cholesterol side-chain cleavage enzyme, mitochondrial (Bos taurus, UniProt P00189); substrate, HPLC; 20 µM, 37 °C, together with: 2-hydroxypropyl-beta-cyclodextrin 0.9%): ~3 mol/min/mol enzyme
CC[C@@H]1[C@H](F)C(=O)N[C@@H]1COc1nccc2cc(C(N)=O)c(OC)cc12  inhibition (CAMK1D; ATP-site probe binding, ActivX profiling; THP-1 cell lysate; 0.01 mM, Lys1 site): 7.8%
NC(=O)NOCCCCCCCCCC[P+](c1ccccc1)(c1ccccc1)c1ccccc1.O=C([O-])C(F)(F)F  oxygen consumption rate (NADH dehydrogenase [ubiquinone] iron-sulfur protein 7, mitochondrial/NADH dehydrogenase [ubiquinone] iron-sulfur protein 2, mitochondrial/MT-ND1; complex I-dependent respiration, Seahorse XF96; HCT-116; 1 µM, 24 h; reference: control): 87.4 ± 3.09%
CCNc1cc(=O)[nH]c(=O)[nH]1  inhibition (FFAR4; antagonist, β-arrestin recruitment; CHO cells; 10 µM): 13 ± 2%
NC(N)=Nc1ccc(-c2ccc(-c3ccc(N=C(N)N)c(Cl)c3)o2)cc1Cl  koff (GAP50; binding, surface plasmon resonance; 1:1 binding model): 0.0312 s⁻¹
O=C(NC1CCC1)c1ccc2nc(-c3cccc(NS(=O)(=O)NCCN4CCCCC4)c3)cn2c1  protein level (Protein ENL (MLLT1, Homo sapiens, UniProt Q03111); degrader, immunoblot, measured: MLLT1; 10 µM, 96 h; reference: DMSO control): 113%
NC(=O)NOCCCCCCCCCCCCCCCC[P+](c1ccccc1)(c1ccccc1)c1ccccc1.O=C([O-])C(F)(F)F  oxygen consumption rate (NADH dehydrogenase [ubiquinone] iron-sulfur protein 7, mitochondrial/NADH dehydrogenase [ubiquinone] iron-sulfur protein 2, mitochondrial/MT-ND1; complex I-dependent respiration, Seahorse XF96; HCT-116; 3 µM, 24 h; reference: control): 15.8 ± 4.12%
COc1ccccc1C(=O)NCc1ccc(CNS(=O)(=O)c2ccccc2)cc1  EC (C-X-C chemokine receptor type 4 (CXCR4, Homo sapiens, UniProt P61073); binding, inhibitor, competitive binding; MDA-MB-231; together with: biotinylated TN14003): 1 nM
COc1c(Nc2cc(C(F)(F)F)cc(C(F)(F)F)c2)c(=O)c1=O  kobs (CD209 antigen (CD209, Homo sapiens, UniProt Q9NNX6); covalent labelling, intact protein MS; 50 µM): 0.00128 min⁻¹
C1=C/COCc2cc(ccc2OCCN2CCCC2)Nc2nccc(n2)-c2cccc(c2)COC/1  binding (Mitogen-activated protein kinase kinase kinase 12 (MAP3K12, Homo sapiens, UniProt Q12852); concentration not given, kinase construct DLK; reference: control): 22%
OC[C@H]1OC(O)[C@H](O)[C@@H](O)[C@@H]1O (stereo partly shown)  substrate inhibition fold reduction (Hexokinase-3 (HK3, Homo sapiens, UniProt P52790, N221A); concentration not given; reference: wild type): 30 fold
O=C(c1ccc(CNCCCN2CCN(c3ccc(F)cc3)CC2)cc1)c1ccc([N+](=O)[O-])cc1  selectivity ratio (Sigma intracellular receptor 2 (TMEM97, Homo sapiens, UniProt Q5BJF2); radioligand binding; RT-4 cell membranes; reference: sigma1 over sigma2 receptor): 70 fold
O=Nc1c(NCCCc2ccccc2)[nH]c(=O)[nH]c1=O  agonist effect (FFAR4; agonist, β-arrestin recruitment; CHO cells; 10 µM; reference: 30 µM TUG-891): 1 ± 1%
COc1ccc(C(=O)Nc2sc3c(c2C(N)=O)CCCC3)cc1OC  remaining activity (TRPM8; antagonist; HEK293; 5 µM; reference: control): 103 ± 12.8%
O=c1nc(SCc2cc(F)cc(C(F)(F)F)c2)nc(SCc2ccc3sccc3c2)[nH]1  ATP hydrolysis rate (DNA topoisomerase 2-alpha (TOP2A, Homo sapiens, UniProt P11388); ATPase activity; 3.9 µM, together with: ATP 1 mM): 2.16 µM/min and 2.29 µM/min
